# Measured values gathered from unrelated publications.
# Protocols differ between the studies behind these lines. Values joined by “and” are separate records of one study, mostly repeats; a detail may differ. ± marks the error that the study gave.
# EPHB2: Ephrin type-B receptor 2 (EPHB2, Homo sapiens, UniProt P29323)
# UniProt P29323, sequence (whole entry, looked up): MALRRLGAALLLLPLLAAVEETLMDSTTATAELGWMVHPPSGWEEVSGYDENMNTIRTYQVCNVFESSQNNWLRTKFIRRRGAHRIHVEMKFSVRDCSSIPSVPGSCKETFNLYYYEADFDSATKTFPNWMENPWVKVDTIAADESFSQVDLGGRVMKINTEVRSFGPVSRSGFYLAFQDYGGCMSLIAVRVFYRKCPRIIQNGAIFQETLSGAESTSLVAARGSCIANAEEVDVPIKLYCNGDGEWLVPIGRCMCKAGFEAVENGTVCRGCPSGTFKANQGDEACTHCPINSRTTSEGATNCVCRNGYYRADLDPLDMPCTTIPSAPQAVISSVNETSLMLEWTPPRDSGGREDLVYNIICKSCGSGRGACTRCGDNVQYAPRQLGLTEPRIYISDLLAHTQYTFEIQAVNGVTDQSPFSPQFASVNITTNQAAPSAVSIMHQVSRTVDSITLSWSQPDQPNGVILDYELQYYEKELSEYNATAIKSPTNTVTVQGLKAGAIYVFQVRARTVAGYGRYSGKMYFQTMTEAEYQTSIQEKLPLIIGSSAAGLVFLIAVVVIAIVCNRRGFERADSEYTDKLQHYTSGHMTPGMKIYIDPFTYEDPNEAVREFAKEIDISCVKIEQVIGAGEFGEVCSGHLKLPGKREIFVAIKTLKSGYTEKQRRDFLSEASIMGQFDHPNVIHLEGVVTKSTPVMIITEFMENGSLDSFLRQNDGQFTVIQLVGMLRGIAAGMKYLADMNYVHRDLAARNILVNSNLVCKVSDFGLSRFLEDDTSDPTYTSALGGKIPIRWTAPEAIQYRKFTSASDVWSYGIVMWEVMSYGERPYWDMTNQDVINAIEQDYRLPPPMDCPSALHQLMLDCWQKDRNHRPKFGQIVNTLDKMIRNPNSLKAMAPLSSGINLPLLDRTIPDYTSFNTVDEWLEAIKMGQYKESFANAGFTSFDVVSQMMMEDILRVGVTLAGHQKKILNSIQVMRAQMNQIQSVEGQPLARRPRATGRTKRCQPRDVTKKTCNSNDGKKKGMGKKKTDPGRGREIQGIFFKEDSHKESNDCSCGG
# PSMB7 in 20S proteasome: Proteasome subunit beta type-7, in 20S proteasome (PSMB7, Homo sapiens, UniProt Q99436)
# UniProt Q99436, sequence (whole entry, looked up): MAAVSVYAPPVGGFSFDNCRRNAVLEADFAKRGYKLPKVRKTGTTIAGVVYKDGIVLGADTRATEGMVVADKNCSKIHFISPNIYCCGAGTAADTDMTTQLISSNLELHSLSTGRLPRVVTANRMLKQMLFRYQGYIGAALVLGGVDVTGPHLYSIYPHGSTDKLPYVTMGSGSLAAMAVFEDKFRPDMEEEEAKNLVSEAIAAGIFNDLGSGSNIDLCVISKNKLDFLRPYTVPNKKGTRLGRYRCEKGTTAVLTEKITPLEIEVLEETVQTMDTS
# UniProt Q9Y285, sequence (whole entry, looked up): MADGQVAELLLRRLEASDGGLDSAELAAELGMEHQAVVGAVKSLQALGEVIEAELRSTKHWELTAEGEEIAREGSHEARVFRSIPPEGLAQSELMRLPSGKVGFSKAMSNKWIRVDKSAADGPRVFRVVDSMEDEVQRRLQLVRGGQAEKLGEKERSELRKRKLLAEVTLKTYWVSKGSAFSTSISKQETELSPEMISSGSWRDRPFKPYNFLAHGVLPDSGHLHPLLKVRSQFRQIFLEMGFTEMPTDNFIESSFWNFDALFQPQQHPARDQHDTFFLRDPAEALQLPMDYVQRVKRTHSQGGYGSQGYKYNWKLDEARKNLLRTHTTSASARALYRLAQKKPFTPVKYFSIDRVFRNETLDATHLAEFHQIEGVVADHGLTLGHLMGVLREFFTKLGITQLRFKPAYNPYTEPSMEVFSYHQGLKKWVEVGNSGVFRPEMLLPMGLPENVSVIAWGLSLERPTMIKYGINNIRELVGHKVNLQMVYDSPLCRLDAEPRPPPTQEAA
# UniProt P11309, sequence (whole entry, looked up): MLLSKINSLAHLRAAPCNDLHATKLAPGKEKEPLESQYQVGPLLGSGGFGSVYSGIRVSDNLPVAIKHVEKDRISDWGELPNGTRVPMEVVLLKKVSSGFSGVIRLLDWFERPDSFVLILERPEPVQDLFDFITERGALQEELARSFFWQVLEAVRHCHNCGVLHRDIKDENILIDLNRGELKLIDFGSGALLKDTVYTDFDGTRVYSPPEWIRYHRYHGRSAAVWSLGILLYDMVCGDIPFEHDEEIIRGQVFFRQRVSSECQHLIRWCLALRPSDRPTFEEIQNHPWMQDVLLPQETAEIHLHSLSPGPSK
# UniProt P22411, sequence (whole entry, looked up): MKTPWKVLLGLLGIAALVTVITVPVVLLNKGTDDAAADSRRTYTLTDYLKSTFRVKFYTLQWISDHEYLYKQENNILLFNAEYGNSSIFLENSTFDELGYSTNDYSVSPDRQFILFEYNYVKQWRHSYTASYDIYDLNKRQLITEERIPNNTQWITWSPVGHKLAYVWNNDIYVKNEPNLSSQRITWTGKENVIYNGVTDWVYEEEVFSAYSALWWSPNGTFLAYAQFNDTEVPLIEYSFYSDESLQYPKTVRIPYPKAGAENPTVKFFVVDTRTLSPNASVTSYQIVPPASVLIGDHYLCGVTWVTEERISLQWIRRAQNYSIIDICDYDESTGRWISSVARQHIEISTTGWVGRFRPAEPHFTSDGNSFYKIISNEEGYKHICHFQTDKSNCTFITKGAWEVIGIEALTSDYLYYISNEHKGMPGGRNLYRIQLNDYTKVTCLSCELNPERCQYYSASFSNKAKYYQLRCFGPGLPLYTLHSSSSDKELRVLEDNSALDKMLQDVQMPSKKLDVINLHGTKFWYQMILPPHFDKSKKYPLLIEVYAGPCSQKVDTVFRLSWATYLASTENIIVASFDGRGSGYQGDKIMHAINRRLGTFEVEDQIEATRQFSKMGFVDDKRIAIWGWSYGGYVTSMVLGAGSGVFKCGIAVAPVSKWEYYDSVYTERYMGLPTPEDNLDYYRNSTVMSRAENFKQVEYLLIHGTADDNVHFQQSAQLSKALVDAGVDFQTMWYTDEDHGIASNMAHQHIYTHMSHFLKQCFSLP
# UniProt Q9Y2J8, sequence (whole entry, looked up): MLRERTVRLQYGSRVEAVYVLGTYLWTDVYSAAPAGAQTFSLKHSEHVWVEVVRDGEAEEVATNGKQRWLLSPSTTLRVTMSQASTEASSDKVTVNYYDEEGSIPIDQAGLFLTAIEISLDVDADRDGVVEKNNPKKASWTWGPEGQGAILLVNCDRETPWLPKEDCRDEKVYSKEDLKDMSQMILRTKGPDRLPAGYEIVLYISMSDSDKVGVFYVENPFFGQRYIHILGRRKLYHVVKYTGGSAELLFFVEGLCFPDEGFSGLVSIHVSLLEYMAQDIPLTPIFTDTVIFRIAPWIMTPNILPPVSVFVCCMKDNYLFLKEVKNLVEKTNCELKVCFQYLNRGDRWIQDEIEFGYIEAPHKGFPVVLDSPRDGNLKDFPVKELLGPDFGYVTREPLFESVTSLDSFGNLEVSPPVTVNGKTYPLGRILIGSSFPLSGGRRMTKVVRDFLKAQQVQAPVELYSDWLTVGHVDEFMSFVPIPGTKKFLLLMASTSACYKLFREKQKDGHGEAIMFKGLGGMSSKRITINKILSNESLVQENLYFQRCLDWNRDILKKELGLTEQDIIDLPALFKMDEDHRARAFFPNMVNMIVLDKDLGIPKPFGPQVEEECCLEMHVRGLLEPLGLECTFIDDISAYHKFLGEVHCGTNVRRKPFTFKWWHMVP
# UniProt P06240, sequence (whole entry, looked up): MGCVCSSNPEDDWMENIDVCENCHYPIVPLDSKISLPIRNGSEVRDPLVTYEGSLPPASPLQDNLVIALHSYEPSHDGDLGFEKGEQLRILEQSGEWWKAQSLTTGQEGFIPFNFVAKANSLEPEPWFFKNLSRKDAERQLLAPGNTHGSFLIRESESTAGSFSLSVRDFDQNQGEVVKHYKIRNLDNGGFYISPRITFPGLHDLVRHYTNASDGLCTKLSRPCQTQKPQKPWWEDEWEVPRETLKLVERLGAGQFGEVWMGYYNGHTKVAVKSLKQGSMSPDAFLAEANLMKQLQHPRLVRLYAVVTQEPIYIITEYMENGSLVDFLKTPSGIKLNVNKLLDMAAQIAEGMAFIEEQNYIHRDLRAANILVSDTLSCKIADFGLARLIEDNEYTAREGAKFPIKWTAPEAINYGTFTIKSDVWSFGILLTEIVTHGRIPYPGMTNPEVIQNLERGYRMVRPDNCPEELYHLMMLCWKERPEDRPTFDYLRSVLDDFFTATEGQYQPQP
# UniProt P39051, sequence (whole entry, looked up): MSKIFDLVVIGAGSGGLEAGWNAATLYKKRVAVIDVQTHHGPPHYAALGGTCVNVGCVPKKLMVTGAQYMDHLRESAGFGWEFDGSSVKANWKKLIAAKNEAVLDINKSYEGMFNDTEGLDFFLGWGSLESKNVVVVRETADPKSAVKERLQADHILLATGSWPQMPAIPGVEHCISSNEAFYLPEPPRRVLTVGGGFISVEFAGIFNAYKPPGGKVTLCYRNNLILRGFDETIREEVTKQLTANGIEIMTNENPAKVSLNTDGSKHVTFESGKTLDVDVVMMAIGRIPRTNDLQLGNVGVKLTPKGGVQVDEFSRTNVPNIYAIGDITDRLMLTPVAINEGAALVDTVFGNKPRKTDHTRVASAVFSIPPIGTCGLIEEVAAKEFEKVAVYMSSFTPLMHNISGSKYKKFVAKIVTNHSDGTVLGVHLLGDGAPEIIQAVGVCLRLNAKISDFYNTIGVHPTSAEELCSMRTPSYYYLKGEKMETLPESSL
# UniProt P47811, sequence (whole entry, looked up): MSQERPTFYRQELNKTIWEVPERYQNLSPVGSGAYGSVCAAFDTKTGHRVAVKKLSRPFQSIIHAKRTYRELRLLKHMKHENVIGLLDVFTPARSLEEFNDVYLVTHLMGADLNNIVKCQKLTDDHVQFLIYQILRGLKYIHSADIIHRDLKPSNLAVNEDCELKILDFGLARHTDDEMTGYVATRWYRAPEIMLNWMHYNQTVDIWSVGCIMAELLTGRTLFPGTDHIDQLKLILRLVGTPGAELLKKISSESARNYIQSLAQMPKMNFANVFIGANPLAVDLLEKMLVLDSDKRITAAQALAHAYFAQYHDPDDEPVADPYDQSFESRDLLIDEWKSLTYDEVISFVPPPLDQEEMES
SMILES,target,test,test system,setting,IC50
CC[C@H](C)[C@H](NC(=O)[C@H](CO)NC(=O)[C@@H](Cc1cccnc1)NC(=O)[C@@H](Cc1ccc(Cl)cc1)NC(=O)[C@@H](Cc1ccc2ccccc2c1)NC(C)=O)C(=O)N[C@H](CCCCNC(C)C)C(=O)N[C@@H](CC(C)C)C(=O)N[C@@H](CCCCNC(C)C)C(=O)N1CCC[C@H]1C(=O)N[C@H](C)C(N)=O,"Gonadotropin-releasing hormone receptor (Gallus gallus, UniProt Q9DDC9)","inositol phosphate production, antagonist",COS-7 transfected,together with: GnRH-II 1 nM,2.33 ± 0.134 µM
Cn1cc(C(=O)c2ccccc2F)cc1/C=C(\C#N)C(N)=O,"Ribosomal protein S6 kinase alpha-3, C-terminal kinase domain (RPS6KA3, Homo sapiens, UniProt P51812, T493M)","kinase activity, inhibitor",,together with: 0.1 mM ATP,> 100 µM
CNC(=O)C1CCN(c2ccccc2NC(=O)c2ccc(-c3cccc(O)c3)c(C)c2)CC1,EPHB2,"target engagement in cells, BRET",,,133 µM
O=C(c1ccc(F)cc1)N1CCN(c2ccc(F)cc2)CC1,"SEC14 (Saccharomyces cerevisiae, UniProt P24280)","enzyme activity, inhibitor, radiometric",,,56.5 µM
CCCCCCCCC/C=C/C=C/C(=O)N[C@H](C(=O)N[C@H]1C[C@@H](O)CCNC(=O)/C=C/[C@H](C)NC1=O)[C@@H](C)O,"Proteasome subunit beta type-7 (PSMB7, Homo sapiens, UniProt Q99436)","trypsin-like activity, inhibitor",,"human constitutive proteasome, together with: Bz-VGR-AMC",0.024 µM
CNC(=O)C1CCN(c2cc(C)c(F)cc2NC(=O)c2ccc(-c3cc(O)ccc3C)c(C)c2)CC1,EPHB2,"target engagement in cells, BRET",,,0.0699 µM
CC(C)(C)NCCCNC(=O)c1ccnc(Br)c1,"PHD finger protein 23 (PHF23, Homo sapiens, UniProt Q9BUL5)","methyl-lysine reader binding, inhibitor, AlphaScreen",,,> 100 µM
C=C(NC(=O)C(=C)NC(=O)c1csc(C2=NC3c4csc(n4)C4NC(=O)c5csc(n5)C(C(C)(O)C(C)O)NC(=O)C5CSC(=N5)C(=CC)NC(=O)C(C(C)O)NC(=O)c5csc(n5)C3(CC2)NC(=O)C(C)NC(=O)C(=C)NC(=O)C(Cc2ccccc2)NC(=O)C(C(C)CC)NC2C=Cc3c(C(C)O)cc(nc3C2O)C(=O)OC4C)n1)C(N)=O (centres unmarked),PSMB7 in 20S proteasome,"trypsin-like activity, inhibitor",purified human 20S proteasome,"37 °C, 15 min preincubation, together with: Boc-Leu-Arg-Arg-AMC",0.18 ± 0.02 µM
C=C(C)C(=O)Nc1ccc(-c2c(-c3ccc(Oc4nccc(C)n4)cc3)c3c(N)ncnc3n2C)cc1,"Fibroblast growth factor receptor 2 (FGFR2, Homo sapiens, UniProt P21802)",Caliper mobility shift,,"30 min preincubation, together with: 100 µM ATP",0.007 µM
O=c1c(-c2ccc(C(F)(F)F)nc2)c[nH]n1-c1ccccn1,"Prolyl hydroxylase EGLN2 (EGLN2, Homo sapiens, UniProt Q96KS0)","enzyme activity, inhibitor, europium VBC binding",,"10 µM FeSO4, 2 mM ascorbate, together with: 20 µM 2-oxoglutarate",2.1 µM
C=C(NC(=O)C(=C)NC(=O)c1csc(C2=NC3c4csc(n4)C4NC(=O)c5csc(n5)C(C(C)(O)C(C)O)NC(=O)C5CSC(=N5)C(=CC)NC(=O)C(C(C)O)NC(=O)c5csc(n5)C3(CC2)NC(=O)C(Cc2cnc[nH]2)NC(=O)C(=C)NC(=O)C(C)NC(=O)C(C(C)CC)NC2C=Cc3c(C(C)O)cc(nc3C2O)C(=O)OC4C)n1)C(N)=O (centres unmarked),PSMB7 in 20S proteasome,"trypsin-like activity, inhibitor",purified 20S proteasome,"15 min preincubation, 37 °C, together with: Boc-Leu-Arg-Arg-AMC substrate",0.51 ± 0.09 µM
CC1OC(Oc2c(-c3ccc(O)cc3)oc3cc(O)cc(O)c3c2=O)C(OC(=O)C=Cc2ccc(O)cc2)C(O)C1OC(=O)C=Cc1ccc(O)cc1 (centres unmarked),"C-C chemokine receptor type 8 (CCR8, Homo sapiens, UniProt P51685)","calcium flux, antagonist",293FT GCaMP6 transfected,,> 1 µM
COc1cccc(NCc2cn(-c3ccccc3)nc2-c2ccc(OCc3ccccc3)cc2)c1,"Prostaglandin G/H synthase 1 (PTGS1, Homo sapiens, UniProt P23219)","enzyme activity, inhibitor, absorbance",,,104 µM
CCn1nc(-c2cc(Br)ccc2F)nc2c(=O)n(C)c(=O)nc1-2,"Trypanothione reductase (TPR, Trypanosoma brucei brucei, UniProt P39051)","inhibitor, DTNB-coupled colourimetric",,together with: substrate at Km,10.2 µM
COC(=O)[C@@H](CS)N1C(=O)c2ccc(N(C)C)cc2C1=O,"Metallo-beta-lactamase type 2 (Serratia marcescens, UniProt P52699)","enzyme activity, inhibitor",,"pH 7.0, together with: chromacef 25 µM",0.032 ± 0.005 µM
CC(C)C[C@H](NC(=O)[C@@H](Cc1c[nH]c2ccccc12)NC(=O)[C@H](Cc1c[nH]cn1)NC(=O)[C@H](CO)NC(=O)[C@H](Cc1c[nH]c2ccccc12)NC(=O)[C@H](Cc1c[nH]cn1)NC(=O)[C@@H]1CCC(=O)N1)C(=O)N[C@@H](CCCNC(=N)N)C(=O)N1CCC[C@H]1C(=O)NCC(N)=O,"Gonadotropin-releasing hormone receptor (Rattus norvegicus, UniProt P30969)","ligand displacement in cells, radioligand",,,0.0008 µM
NC(=O)[C@@H]1CCCN1C(=O)[C@H](Cc1cn(Cc2ccccc2)cn1)NC(=O)c1cnccn1,"Thyrotropin-releasing hormone receptor (Mus musculus, UniProt P21761)","ligand displacement, radioligand",,,> 50 µM
COc1cc(NC(=O)N2CCSc3ccccc32)cc(OC)c1,"Uncharacterized protein (Trypanosoma brucei brucei, UniProt Q386Q8)","enzyme activity, coupled colorimetric assay with pyrophosphatase",,,49 ± 4 µM
COC(=O)N1CCC(CN2CCC(CNC(=O)c3cccc4[nH]c(C(C)C)nc34)CC2)CC1,"ATP-dependent translocase ABCB1 (ABCB1, Homo sapiens, UniProt P08183)",transport,,,> 10 µM
FC(F)(F)c1csc(Nc2ccc(Cl)c(Cl)c2)n1,"Kinesin-like protein KIF15, residues 1-700 (Homo sapiens, UniProt Q9NS87)",microtubule gliding,,,5 µM
CC(C)C[C@H](NC(=O)[C@H](CC(N)=O)NC(=O)[C@H](CCCNC(=N)N)NC(=O)[C@@H](NC(=O)[C@@H](NC(=O)[C@@H]1CCCN1C(=O)[C@H](CCCNC(=N)N)NC(=O)[C@H](CCCCN)NC(=O)[C@@H]1CCCN1)[C@@H](C)O)[C@@H](C)O)C(=O)N[C@@H](Cc1ccccc1)C(=O)NCCCCCC(=O)N[C@@H](CCCNC(=N)N)C(=O)N[C@@H](CCCNC(=N)N)C(=O)N[C@@H](CCCNC(=N)N)C(=O)N[C@@H](CCC(N)=O)C(=O)N[C@@H](CCCNC(=N)N)C(=O)N[C@@H](CCCNC(=N)N)C(=O)N[C@@H](CCCCN)C(=O)N[C@@H](CCCCN)C(=O)N[C@@H](CCCNC(=N)N)C(=O)NCC(N)=O,"Mitogen-activated protein kinase 14 (Mapk14, Mus musculus, UniProt P47811)","enzyme activity, inhibitor, radiometric",,pH 7.5,447 µM
Cc1cc(O)c2c(c1)C(=O)c1cc3oc(=O)cc(-c4ccccc4)c3c(O)c1C2=O,mushroom tyrosinase,enzyme activity,,together with: L-DOPA,> 100 µg/mL
N=C(CCl)NCCC[C@H](NC(=O)c1ccc(/N=N/c2ccccc2)cc1)c1nc2ccccc2[nH]1,"Protein-arginine deiminase type-2 (PADI2, Homo sapiens, UniProt Q9Y2J8)","inhibitor, competitive ABPP",,"2 h, 37 °C, 30 min preincubation, together with: RFA probe 2 µM",> 100 µM
COc1cc(OC)c(C(=O)/C=C/c2ccccc2)c(O)c1O,"Dipeptidyl peptidase 4 (DPP4, Sus scrofa, UniProt P22411)","enzyme activity, inhibitor, absorbance",,,28.7 µM
N#Cc1ccc(-c2ccc(C=NOCc3ccc(-c4nc5cc(-c6ccccc6)ccn5c4Nc4ccc(C(=O)O)cc4)cc3)cc2)nc1,"Tyrosyl-DNA phosphodiesterase 1 (TDP1, Homo sapiens, UniProt Q9NUW8)","enzyme activity, inhibitor, HPLC",,,0.38 µM
COc1cc(-c2nc3ccc(C(=O)NCCCN4CCN(c5ccccn5)CC4)cc3n2C2CCC2)cc(OC)c1OC,"Activin receptor type-1 (ACVR1, Homo sapiens, UniProt Q04771)","target engagement in cells, BRET",,,0.47 µM
CSc1ncc(-c2cc(-c3ccc(Br)cc3)[nH]c(=N)c2C#N)n1Cc1ccccc1,"Serine/threonine-protein kinase pim-1 (PIM1, Homo sapiens, UniProt P11309)","enzyme activity, inhibitor",,,0.132 µM and < 0.15 µM
COc1ccc2oc(-c3cc(-c4cnn(C5CCNCC5)c4)cnc3N)nc2c1,"Tyrosine-protein kinase JAK2 (JAK2, Homo sapiens, UniProt O60674)","enzyme activity, inhibitor, TR-FRET",,,0.25 µM
COc1ccc(NC(=O)N2CCCN3CCC(c4ccc(C#Cc5ccccc5)cc4)C3C2)cc1 (centres unmarked),"Phenylalanine--tRNA ligase alpha subunit (Homo sapiens, UniProt Q9Y285)","enzyme activity, inhibitor, absorbance",,,16 µM and 15.6 µM
OC[C@@H]1NC[C@H](O)[C@@H]1O,"Alpha-mannosidase (Canavalia ensiformis, UniProt C0HJB3)","enzyme activity, inhibitor, absorbance",,pH 5,700 µM
Cc1cc(O)cc(C)c1C[C@H](NC(=O)[C@@H]1CCCN1C(=O)[C@H](CCCNC(=N)N)NC(=O)[C@H](CCCNC(=N)N)N(C)C(=O)[C@@H]1CCCN1C(=O)[C@H](CCCCN)NC(=O)CCNC(=O)CN1CCN(CC(=O)O)CCN(CC(=O)O)CCN(CC(=O)O)CC1)C(=O)N[C@H](C(=O)N[C@@H](CC(C)C)C(=O)O)C(C)(C)C,"Neurotensin receptor type 1 (NTSR1, Homo sapiens, UniProt P30989)","ligand displacement, radioligand",,,0.0272 µM
CN(C)C/C=C/C(=O)Nc1ccc2nc(NCCCCCN(C)C)nc(NCCCCCCN(C)C)c2c1,"M-phase phosphoprotein 8, chromodomain (Homo sapiens, UniProt Q99549)","methyl-lysine binding, TR-FRET",,,90 µM
CC(=O)NCCN(CCC(=O)NCCN(CCC(=O)NCCN(CCC(=O)NCCC(N)=O)C(=O)[C@@H](N)CCCNC(=N)N)C(=O)[C@@H](N)CCCNC(=N)N)C(=O)[C@@H](N)Cc1ccccc1,HIV-1 TAR RNA,"Tat/TAR complex displacement, FRET",,"room temperature, together with: 10 nM Tat/TAR complex",2.7 ± 0.8 µM
C=C(NC(=O)C(=C)NC(=O)c1csc(C2=NC3c4csc(n4)C4NC(=O)c5csc(n5)C(C(C)(O)C(C)O)NC(=O)C5CSC(=N5)C(=CC)NC(=O)C(C(C)O)NC(=O)c5csc(n5)C3(CC2)NC(=O)CNC(=O)C(=C)NC(=O)C(C)NC(=O)C(C(C)CC)NC2C=Cc3c(C(C)O)cc(nc3C2O)C(=O)OC4C)n1)C(N)=O (centres unmarked),PSMB7 in 20S proteasome,"trypsin-like activity, inhibitor",purified 20S proteasome,"15 min preincubation, 37 °C, together with: Boc-Leu-Arg-Arg-AMC substrate",0.41 ± 0.05 µM
NC(=O)[C@@H]1CCNC(=O)[C@H](CCCNC(=O)c2cnccn2)NC(=O)[C@H](CC2CCCCC2)NC(=O)[C@H](C/C=C/c2ccccc2)NC(=O)/C=C\C(=O)N1,"Proto-oncogene tyrosine-protein kinase LCK (Lck, Mus musculus, UniProt P06240)","enzyme activity, inhibitor, absorbance",,,> 100 µM

# Some of these lines once more:
SMILES,target,test,test system,setting,IC50
C=C(NC(=O)C(=C)NC(=O)c1csc(C2=NC3c4csc(n4)C4NC(=O)c5csc(n5)C(C(C)(O)C(C)O)NC(=O)C5CSC(=N5)C(=CC)NC(=O)C(C(C)O)NC(=O)c5csc(n5)C3(CC2)NC(=O)C(C)NC(=O)C(=C)NC(=O)C(Cc2ccccc2)NC(=O)C(C(C)CC)NC2C=Cc3c(C(C)O)cc(nc3C2O)C(=O)OC4C)n1)C(N)=O (centres unmarked),PSMB7 in 20S proteasome,"trypsin-like activity, inhibitor",purified human 20S proteasome,"37 °C, 15 min preincubation, together with: Boc-Leu-Arg-Arg-AMC",0.18 ± 0.02 µM
C=C(C)C(=O)Nc1ccc(-c2c(-c3ccc(Oc4nccc(C)n4)cc3)c3c(N)ncnc3n2C)cc1,"Fibroblast growth factor receptor 2 (FGFR2, Homo sapiens, UniProt P21802)",Caliper mobility shift,,"30 min preincubation, together with: 100 µM ATP",0.007 µM
